Assay results gathered from unrelated publications.
Each line is one published result; not all experiments were run side by side. Values joined by “and” are separate records of one study, mostly repeats; a detail may differ. Numbers after ± are the reported error.
Target: Acetylcholinesterase (ache, Electrophorus electricus, UniProt O42275)
UniProt O42275, sequence (whole entry, looked up): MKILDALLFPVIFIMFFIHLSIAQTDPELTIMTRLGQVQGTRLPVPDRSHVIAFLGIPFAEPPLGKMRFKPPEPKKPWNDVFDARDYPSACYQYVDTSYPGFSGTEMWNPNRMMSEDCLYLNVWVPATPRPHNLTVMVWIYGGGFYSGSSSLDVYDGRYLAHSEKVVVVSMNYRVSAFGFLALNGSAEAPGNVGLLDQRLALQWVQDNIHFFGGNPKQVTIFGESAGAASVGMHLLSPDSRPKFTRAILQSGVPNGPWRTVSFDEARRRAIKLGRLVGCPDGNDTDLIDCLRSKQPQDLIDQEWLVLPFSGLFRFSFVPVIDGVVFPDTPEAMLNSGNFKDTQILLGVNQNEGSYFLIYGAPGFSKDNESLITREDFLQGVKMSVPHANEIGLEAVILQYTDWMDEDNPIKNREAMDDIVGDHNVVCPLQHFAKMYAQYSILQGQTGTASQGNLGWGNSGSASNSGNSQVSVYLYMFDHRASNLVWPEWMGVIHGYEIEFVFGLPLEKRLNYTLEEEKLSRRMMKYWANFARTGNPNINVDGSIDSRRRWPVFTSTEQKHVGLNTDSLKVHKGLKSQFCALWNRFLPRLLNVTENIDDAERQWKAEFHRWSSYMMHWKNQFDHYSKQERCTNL
Observed: enzyme activity
Action: inhibitor

| Compound | method | pH | IC50 |
| --- | --- | --- | --- |
| O=C(COc1ccc(Sc2ccc(OCC(=O)N/N=C/c3cccc4ccccc34)cc2)cc1)N/N=C/c1cccc2ccccc12 |  |  | 131 µM |
| COc1cc2c(cc1O)CCN1Cc3c(ccc(O)c3OC)C[C@@H]21 |  |  | 27 µM |
| C/C=C/c1ccc(OCc2ccccc2)c(OC)c1 | Ellman | pH 7.5 | 176 µM |
| COc1ccc(/C=N/NC(=O)COc2ccc(Sc3ccc(OCC(=O)N/N=C/c4ccc(OC)cc4OC)cc3)cc2)c(OC)c1 |  |  | 40.2 µM |
| CCCCc1nc2ccc(/N=N/c3ccc(Cl)cc3)cc2c(-c2ccccc2)c1I | Ellman | pH 7.4 | 6.2 µM |
| COc1cc2c(cc1OC)C(=O)C1(C2)C(c2ccccc2Cl)C(Cc2ccccc2)NC12C(=O)Nc1ccc(OC(F)(F)F)cc12 (stereo not drawn) |  | pH 8 | > 10 µM and 17.1 µM |
| CC(=O)C1=C(C)NC(SCCCSc2nnc(Cc3ccccc3Nc3c(Cl)cccc3Cl)n2-c2ccc(Cl)c(Cl)c2)=NC1c1ccc([N+](=O)[O-])cc1 (stereo not drawn) | Ellman |  | 0.09 µM |
| COc1ccc2[nH]cc(CCNS(=O)(=O)CCc3cn(-c4cnc5ccccc5c4)nn3)c2c1 | Ellman |  | 0.006 µM |
| COc1ccc(CNc2c(NC3CCN(Cc4ccccc4)CC3)c(=O)c2=O)cc1OC | Ellman |  | 5.6 µM |
| COc1cc2c(cc1OC)-c1c(C)c3cc(OC)c(OC)cc3c[n+]1CC2 |  |  | 18.3 µM |
| COc1ccc(C2C(Cc3ccccc3)NC3(C(=O)Nc4ccc(OC(F)(F)F)cc43)C23Cc2cc(OC)c(OC)cc2C3=O)cc1 (stereo not drawn) |  | pH 8 | 3.24 ± 0.18 µM |
| O=C(CN1C(=O)c2ccccc2C1=O)Nc1ccc[n+](Cc2ccccc2)c1 | Ellman |  | 2.6 µM |
| CCOc1cc(/C=N/NC(=O)COc2ccc(Sc3ccc(OCC(=O)N/N=C/c4ccc(O)c(OCC)c4)cc3)cc2)ccc1O |  |  | 36.3 µM |
| CC(C)=CCCC(C)=CCCC(C)=CCc1c(O)cc(O)c(CC=C(C)C)c1-c1cc2ccc(O)cc2o1 |  |  | 13.9 µM |
| O=C(CN1C(=O)c2ccccc2C1=O)Nc1ccc[n+](Cc2ccc(F)cc2)c1 | Ellman |  | 2.1 µM |
| COc1ccc(C2C(Cc3c[nH]c4ccccc34)NC3(C(=O)Nc4ccc(OC(F)(F)F)cc43)C23Cc2cc(OC)c(OC)cc2C3=O)cc1 (stereo not drawn) |  | pH 8 | 3.46 ± 0.2 µM |
| C/C(=C\CO)CCCC(C)CCCC(C)CCCC(C)C (stereo not drawn) |  |  | 42.2 µM |
| Cc1c2[nH]c3cc(Br)ccc3c2cc[n+]1C |  |  | 0.47 µM |

A few entries again:
| Compound | method | pH | IC50 |
| --- | --- | --- | --- |
| COc1ccc(C2C(Cc3c[nH]c4ccccc34)NC3(C(=O)Nc4ccc(OC(F)(F)F)cc43)C23Cc2cc(OC)c(OC)cc2C3=O)cc1 (stereo not drawn) |  | pH 8 | 3.46 ± 0.2 µM |
| C/C(=C\CO)CCCC(C)CCCC(C)CCCC(C)C (stereo not drawn) |  |  | 42.2 µM |
| Cc1c2[nH]c3cc(Br)ccc3c2cc[n+]1C |  |  | 0.47 µM |
